Published values collected from several papers.
Every numbered part comes from another study and shows a few of its results, in no order.

Set 1
Target: RING finger protein unkempt homolog, zinc fingers 1-6, SBP tag (UNK, Homo sapiens, UniProt Q9C0B0, residues 30-357)
UniProt Q9C0B0, sequence (30-357, looked up): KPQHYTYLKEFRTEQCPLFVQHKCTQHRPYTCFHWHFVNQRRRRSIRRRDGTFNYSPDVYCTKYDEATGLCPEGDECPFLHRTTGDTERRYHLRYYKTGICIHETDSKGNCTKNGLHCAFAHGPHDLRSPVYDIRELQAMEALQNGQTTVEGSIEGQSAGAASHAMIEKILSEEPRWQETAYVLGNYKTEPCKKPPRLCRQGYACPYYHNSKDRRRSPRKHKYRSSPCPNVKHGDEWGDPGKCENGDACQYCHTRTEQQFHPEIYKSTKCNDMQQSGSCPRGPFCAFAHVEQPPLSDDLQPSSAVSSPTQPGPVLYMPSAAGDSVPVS
Method: RNA Bind-n-Seq
Form: RNA
Sample: in vitro
Concentration: 100 nM
Setting: RNA with constant flanks, vertebrate orthologous sites, ends assumed
Relative to: input RNA pool
Reading: higher = stronger binding
All sequences stand within: GGGAGUUCUACAGUCCGACGAUC … CAACAGAGGAUUGAGCAUCA
Oligonucleotide | bound/input enrichment [ratio]
AAAAUGUGUUUCCAUUUGUUUAGGAUAGUUUUGUGCUAAGGUUGUGUUAGACUUAAAAAUUAGUUAAUUUCUUUGUUGUGUUGCUUUUGUUAUUGAAAAUAAAUGGAACUUUGUAUUUGA | 1.37
CCUACAAUAAUGAAAACUUACAGGAAUUUUUUUAUUUUUCAUUUUCCCCUUAGGCAUACUUAGUCUUUUUUCCCCCAGGCAGAUGAUUCUGAGUGUGCGAGUGUGUGCACAUGUUACAGA | 1.18
ACGCUUUGAUAUUAAAUUUGACAUAAAAAGCAGCUGAUUGUAAGCACAACUCUCUCCUCCUAGCCAUUUAAAAAGGUAAAAAACAAAAAAGAAAACCUACUAGUCUUGAACAAACUGUCA | 0.956
CUCUACGGGCCUCGCAGAGUUGAAAUAAUGGAAGAGGAGAAUGAACAGUAAUCUGCAUUAGUAUUUAUGCUUAGGUGUGAAAUGUUAUUUGAUCAUUUCUAUAAUCCAGAGCUUUAGAGA | 0.807
AAGGGGAUGGCCCGAUCCCACCACUGUUUAUUCUGUAAACUUCAACCUGUACAUAACGUUUAGCAUUCCUAUUGUAACAAAAUUAAUUUUUACAAAAUAAAUUAUAUUUCCUAGUCUAAU | 1.06
AUAGAAUAUUGGAUGCAGCGUAGAAGUAGAUCCGAGGCAGUGACUUCAGCUCUGUCGAGACGGUUAGUUUCAAAGGCACCUGCUCUCACGCAGACUUCUCGAUUGGGUUGUUUGCUAGAG | 0.293
UAUUGUAUGUAGAGAAAAAUUUUCAUUGACUCCCAUUGUGGAAUUCCCUAGCAAUUUAUUUAGACCUAAUUUUUUAAAUUCAAGCUUACUGUAUUAGUCAUUUUUAGCCCAUAAUUAAAA | 11.8
AAUCUUCUACUUAAAAUUGGUAUUUUCAAACAAUAGGGUGGUUUUUUUUUUUUGAUAGUUCAGUAUAUCUGGUUUCUACAUGGAAGACUAAACUCAUGCUUGUUGCUAAUCGUGGUUUUU | 0.653
GCAUGCCCAUGCCACUGUCACCGAAAGCGAACCAUCACUUCUCAGAUUUCCGAGCUGUUGUAGUGUUUCCCAGUCCCUACCCUUCCCACCACUUUGAGAGAUGAACUGUCCUGAGUUGUU | 0.695
GCACAUGCCACUGUCGCCAAAAACAAAAUACCACUUUCCAAAUUUCAUUCAGAGCCAUUUUAGUGUUUUCCUAUUCCCUACCCCUCCCACUACUUUCAAUGAUGACAUACCCUAAGUUCU | 3.38
AAUAAUGAAUAGUAUUAAAGAAACAUUCUUGUCUUCCUUUACCUUUAAUCCCCUAAUACCUAGUCUACUUUUUAAAUUUUCAGACUUCACUGCUUUUUGAAUUCAUAAUUCUAAUUUUCA | 2.59

Set 2
Target: Centromere-binding protein 1, full length, His-tagged (CBF1, Saccharomyces cerevisiae, UniProt P17106, residues 1-351)
UniProt P17106, sequence (whole entry, looked up): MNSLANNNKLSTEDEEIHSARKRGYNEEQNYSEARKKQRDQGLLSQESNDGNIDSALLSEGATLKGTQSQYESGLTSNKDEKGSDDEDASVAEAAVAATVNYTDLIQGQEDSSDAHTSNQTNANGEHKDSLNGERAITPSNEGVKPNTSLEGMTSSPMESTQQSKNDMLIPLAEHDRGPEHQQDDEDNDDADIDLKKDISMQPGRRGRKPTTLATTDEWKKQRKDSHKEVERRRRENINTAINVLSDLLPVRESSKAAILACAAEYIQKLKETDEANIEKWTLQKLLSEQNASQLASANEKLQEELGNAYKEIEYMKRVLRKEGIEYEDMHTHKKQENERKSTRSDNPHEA
Method: competition protein-binding microarray
Form: double-stranded DNA, one strand shown
Sample: in vitro
Concentration: 2 µM
Setting: whole 60-bp probe, lowest competitor level
Together with: Pho4 competitor, 0.05 µM
Reading: higher = stronger binding
All sequences stand within: … GTCTTGATTCGCTTGACGCTGCTG
Oligonucleotide | fluorescence intensity [a.u.]
AAATTACTAAGTTGGCGCGTGGGTGACGCCGTATGA | 64.8
GTCTTGTCTCATTGTCGTGTGGGTGTCCCCACTTCA | 70.9
GCCACAACTGCGGCCCGCGTGAAGAAAAAACCCCAT | 83.6
CGGCCGGAGTTTTATCACATGGATGTTTCTTATTCC | 248
CTTCTGTAAATTTAACACGTGTTTTGACGCGCCCCG | 2570
GACCAGAAACGTCGTCATGTGGCCAAAGTCGGGCCA | 240
CGGGGTTAAGTTTGCGTAGTGGGTGGCTTGCAGCAG | 65.7
GTTAAGCATAAAAAGCACGTGCTTTAGATGTTTTCA | 2570
TGCGCAACAACTTGCTCGGTGGGTGTATGTCTAGAA | 71.3
GGAGAAGTTACTGTACACATGAAAACACGAATAACT | 95
GTCTTGTCTCATTGAAGTGTGGGTGTCCCCACTTCA | 71.7
GGGTACGGACCCCGTCACGTAAGACGATGCCGATGC | 62.9
CTAACGAAGGTTTATCACGTGTTTTACAAGCCAAGT | 4460
CTTTCCCGATCTTGTCACGCCACTTTAGCACATTTG | 349
GAGCAGAGTGAAAAGCACGCAAAGAGACATAGTCGG | 53.5
CTTTGTCTCCATTGCGGCGTGCTAATTCTTCTACTA | 81.9
GTCTTGTCTCATTGATTAGTGGGTGTCCCCACTTCA | 75.3

Set 3
Target: Interferon regulatory factor 7, full length, phosphomimetic (IRF7, Homo sapiens, UniProt Q92985, residues 1-503, S101K/S471D/S472D/S475D/S476D/S477D/S483D/S484D/S487D)
Method: protein-binding microarray
Form: double-stranded DNA, one strand shown
Sample: in vitro
Concentration: 250 nM
Setting: 60-bp whole probe
Together with: salmon DNA 0.4 mg/ml
Relative to: random background probes
Reading: higher = stronger binding
All sequences stand within: GCCTAGCAC … GTCTTGATTCGCTTGACGCTGCTG
Construct (chain): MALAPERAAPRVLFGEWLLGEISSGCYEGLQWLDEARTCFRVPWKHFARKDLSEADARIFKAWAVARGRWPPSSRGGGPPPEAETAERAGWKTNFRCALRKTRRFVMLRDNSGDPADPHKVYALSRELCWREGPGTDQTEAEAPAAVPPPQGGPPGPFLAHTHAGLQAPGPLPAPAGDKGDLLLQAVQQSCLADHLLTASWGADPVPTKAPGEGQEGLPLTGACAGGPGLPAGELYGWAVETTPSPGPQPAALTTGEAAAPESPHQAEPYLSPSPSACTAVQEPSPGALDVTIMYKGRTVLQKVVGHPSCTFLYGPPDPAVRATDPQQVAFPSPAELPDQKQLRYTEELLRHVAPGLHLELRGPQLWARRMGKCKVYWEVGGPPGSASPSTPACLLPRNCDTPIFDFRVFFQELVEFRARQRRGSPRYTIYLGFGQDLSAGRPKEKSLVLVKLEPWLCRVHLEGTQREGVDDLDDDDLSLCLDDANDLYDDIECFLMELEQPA
Oligonucleotide | log fluorescence [z-score]
TTAGGTCTGGGTATCGGTTAGTGCTAG | 0.657
GACGGACTGGACTTACGGGACGTGCTA | -0.423
GACGATATCAGTCGCGAGACGTGCTAG | -0.308
GACGGTATCGACTATCTGGACGTGCTA | -0.252
GACGGTATTGGGTTTCGGGACGTGCTA | 1.91
GGCGGTCTCGGACTGGGGACGTGCTAG | 0.0841
TTAGATATCACACTGGATTAGTGCTAG | -0.348
GTTTTACTTTCTATCTCTGTGTGCTAG | 5.96
GGTTTTCTCTGGTTCTTGCTGTGCTAG | 2.84
AATGGAACAAATATGTTTATGTGCTAG | 0.0138
GACGGTTTCGACTATCGGAACGTGCTA | 7.16
TCATCCCTTTCTCTCTGACTGTGCTAG | 1.85
GCTGCCCTCACCATCATCCTGTGCTAG | -0.344
TCATTGGTTGAACATGAACTGTGCTAG | 0.138
GACGATATCGGGTTCCGAGACGTGCTA | -0.00472
TTAGGTGTCGACTTTCGGTTAGTGCTA | 1.08
TTAGGTATCGGTCTCGATTAGTGCTAG | 1.87
TTAGGTTTCAGTATCGATTAGTGCTAG | 3.39
GACGCTATCGGGTTTCGAGACGTGCTA | 2.5
GACGGTTTCGGGATTCGGGACGTGCTA | 7.53
CTCTGGGGGGTGGGATGAAGGTGCTAG | 3.9
TTAGGTATCCTATTCCTTTAGTGCTAG | 0.812
TTAGATAGCGGGTTTCGATTAGTGCTA | 6.36

Set 4
Target: Cellular tumor antigen p53, full length (TP53, Homo sapiens, UniProt P04637, residues 1-393)
Method: protein-binding microarray
Form: hairpin DNA
Sample: in vitro
Concentration: not given
Setting: whole hairpin DNA, median over replicate spots
Relative to: not given
Reading: higher = stronger binding
Oligonucleotide | median fluorescence [a.u.]
CGGACATGCCCGGCGATGTCTCCTGACATCGCCGGGCATGTCCGACACTC (5mC at 30) | 11100
CGGACATGACCGGGCATGTCTCCTGACATGCCCGGTCATGTCCGACACTC | 15400
CCACACGTGGTGGCATGCCTTCCTAGGCATGCCACCACGTGTGGACACTC (5mC at 36) | 7350
CCACACGTGGTCGCATGCCTTCCTAGGCATGCGACCACGTGTGGACACTC | 5260
CGGACGTGCCCGGGCATGTCTCCTGACATGCCCGGGCACGTCCGACACTC (5mC at 39) | 18100
CCACACGTGGTGGGATGCCTTCCTAGGCATCCCACCACGTGTGGACACTC | 4030
CCACACGTGCGGGCATGCCTTCCTAGGCATGCCCGCACGTGTGGACACTC (5mC at 10 34) | 10700
CCACCCGTGGTGGCATGCCTTCCTAGGCATGCCACCACGGGTGGACACTC (5mC at 5) | 6660
CGGACATACCCGGGCATGTCTCCTGACATGCCCGGGTATGTCCGACACTC | 10300
CCACACGTGGTGGCATGCCTTCCTAGGCATGCCACCACGTGTGGACACTC (5mC at 33) | 6620
CGGACATGCCCGGCGATGTCTCCTGACATCGCCGGGCATGTCCGACACTC (5mC at 14) | 9920
CCACACGTGGTGGGATGCCTTCCTAGGCATCCCACCACGTGTGGACACTC (5mC at 31) | 4090
CGGACATGCGCGGGCATGTCTCCTGACATGCCCGCGCATGTCCGACACTC (5mC at 35) | 15400
CCACGCGTGGTGGCATGCCTTCCTAGGCATGCCACCACGCGTGGACACTC (5mC at 4 40) | 7780
CGGACATGCCCGGGCATGTCTCCTGACATGCCCGGGCATGTCCGACACTC (5mC at 32) | 19100
CCACACGTGGTTGCATGCCTTCCTAGGCATGCAACCACGTGTGGACACTC | 6070

Excerpt of the above (set 4):
Oligonucleotide | median fluorescence [a.u.]
CCACCCGTGGTGGCATGCCTTCCTAGGCATGCCACCACGGGTGGACACTC (5mC at 5) | 6660
CGGACGTGCCCGGGCATGTCTCCTGACATGCCCGGGCACGTCCGACACTC (5mC at 39) | 18100
CCACACGTGGTGGCATGCCTTCCTAGGCATGCCACCACGTGTGGACACTC (5mC at 36) | 7350
CCACACGTGGTGGCATGCCTTCCTAGGCATGCCACCACGTGTGGACACTC (5mC at 33) | 6620
CCACACGTGGTGGGATGCCTTCCTAGGCATCCCACCACGTGTGGACACTC (5mC at 31) | 4090
